Published values of several laboratories.
Protocols differ between the studies behind these lines.

`Cc1cc(C)c(CNC(=O)c2cc(Cl)c3c(c2C)O[C@@](C)([C@H]2CC[C@H](N(C)C)CC2)O3)c(=O)[nH]1`: “grade ≥3 drug-related TEAE patients” 29.2% (CTCAE v4.0; human, relapsed/refractory NHL; oral, 200 mg once daily).
`Clc1ccc([C@H]2COC[C@@H](c3cccc(Br)c3)N2)cc1` has a logD of over 4.7 (shake-flask, 1-octanol/buffer; pH 7.4).
Under “conversion to native product”, `CC[C@H](C)[C@@H]1NC(=O)[C@H](CCCCN)NC(=O)[C@@H]2CCCN2C(=O)[C@@H]2CSSC[C@@H]3NC(=O)[C@H](C)NC(=O)CNC(=O)[C@@H]4CCCN4C(=O)[C@@H]4CSSC[C@H](NC(=O)[C@H](Cc5ccc(O)cc5)NC(=O)CNC(=O)CNC(=O)[C@H]5CCCN5C(=O)[C@H](CCCNC(=N)N)NC(=O)[C@H](CSSC[C@H](NC(=O)[C@H](CCCCN)NC(=O)[C@H](CCCCN)NC(=O)[C@H](CC(C)C)NC1=O)C(=O)N[C@@H](CCCNC(=N)N)C(=O)N[C@@H](CCCNC(=N)N)C(=O)N[C@@H](CC(=O)O)C(=O)N[C@@H](CO)C(=O)N[C@@H](CC(=O)O)C(=O)N4)NC(=O)[C@H]([C@@H](C)CC)NC3=O)C(=O)NCC(=O)N[C@@H](CO)C(=O)NCC(=O)N[C@@H](CO)C(=O)N[C@@H](CC(=O)O)C(=O)NCC(=O)NCC(=O)N[C@@H](C(C)C)C(=O)N2` is recorded as 75% (RP-HPLC; NH4HCO3 without redox agents; 72 h, pH 8.5, room temperature, oxidative folding).
For `FC(F)(F)c1ccc(CNc2ccc(Cc3c[nH]c4ncc(Cl)cc34)cn2)cn1`, “treatment-related adverse events” read 6% (measured: Fatigue; patients with advanced solid tumours, non-TGCT cohort; oral, 1000 mg/day, grade 3 or higher).
`N#Cc1ccc2c(c1)[C@H]1CCCN(C(=O)c3ccc4[nH]cnc4c3)[C@H]1C2` — result for “minimum ACTH level”: 2.1 pmol/L (human; 10 mg, day 15).
With `CCn1cc(C(=O)N2CCOCC2)c(=O)c2cc(NC3Cc4ccccc4C3)cnc21` the Cmax was 2780 ng/mL (human, fed; oral suspension, 1200 mg/day twice daily, day 8, arithmetic mean).
Under “mean plasma concentration”, `CCN1CCN(Cc2ccc(NC(=O)c3ccc(C)c(NC(=O)c4cncc(-c5cccs5)c4)c3)cc2C(F)(F)F)CC1` is recorded as 0.06 µg/mL (LC-MS/MS; C57BL/6 mouse, plasma; intraperitoneal, 20 mg/kg single dose, 8 h).
For `N[C@@H](Cc1c[nH]cn1)C(=O)O`, “z-scored log2 fold change” read 0.242 (binding, equilibrium dialysis LC-MS; 5 µM, thermostabilized A2AR-BRIL construct; reference: no-protein control, direction not given).
Under “percent change from baseline”, `Cn1cc(Nc2nccc(-c3ccc4c(c3)CN(C3COC3)CC[C@H]4NC(=O)c3cn(C(C)(C)C)nn3)n2)cn1` is recorded as -15.7% (measured: naive B cell count; human, clinical trial, whole blood; 150 mg twice daily, follow-up).
`[O]=[Co].[O]=[Co][O][Co]=[O]` has a cobalt concentration of 172 µg/L (rat, female, urine, 24-h collection; oral gavage, single, 300 mg/kg (220 mg Co/kg), day 3, vehicle 0.5% HPMC).
`FC(F)(F)c1ccc(CNc2ccc(Cc3c[nH]c4ncc(Cl)cc34)cn2)cn1` — result for “adverse event incidence”: 2% (measured: blood alkaline phosphatase increased; patients with advanced solid tumours; oral, dose not given, grade 3 and 4, possibly related to drug).
`C[C@H]1CNCCCN1S(=O)(=O)c1cccc2cncc(F)c12`: “subjects with soft faeces” 5.6% (healthy adult men; ocular, 1 drop per eye twice daily, 8 days, adverse event).
The Ctau of `C[C@@H]1CCO[C@H]2Cn3cc(C(=O)NCc4ccc(F)cc4F)c(=O)c(O)c3C(=O)N12` is reported as 1300 ng/mL (human, haemodialysis patients, plasma; oral, dose not given, 24 h, steady state, fixed-dose combination).
For `Cn1cnc2c(F)c(Nc3ccc(Br)cc3Cl)c(C(=O)NOCCO)cc21`, “absorption lag time” read 0.63 h (population PK model; human, plasma; oral, first-order absorption model, fed).
`NCCS` — result for “z-scored log2 fold change”: 0.187 (binding, equilibrium dialysis LC-MS; 5 µM, thermostabilized A2AR-BRIL construct; reference: no-protein control, direction not given).
For `CNCc1ccc(-c2[nH]c3cc(F)cc4c3c2CCNC4=O)cc1`, “incidence of any adverse event” read 30.8% (human patients; oral, 600 mg twice daily, grade 3).
`CC(C)(C(=O)N1CCOc2c(C#N)cncc2C1)C(F)F`: “subjects with adverse event” 0% (measured: Vascular disorders; human; oral, 10 mg once daily, 14 days, multiple ascending dose).
`CC(C)c1nc(CN(C)C(=O)N[C@@H](CCN2CCOCC2)C(=O)N[C@H](CC[C@H](Cc2ccccc2)NC(=O)OCc2cncs2)Cc2ccccc2)cs1` — result for “grade 1 TEAE”: 30.8% (human; oral, 150 mg, drug interaction trial).

For quick reference, copied from above:
Under “conversion to native product”, `CC[C@H](C)[C@@H]1NC(=O)[C@H](CCCCN)NC(=O)[C@@H]2CCCN2C(=O)[C@@H]2CSSC[C@@H]3NC(=O)[C@H](C)NC(=O)CNC(=O)[C@@H]4CCCN4C(=O)[C@@H]4CSSC[C@H](NC(=O)[C@H](Cc5ccc(O)cc5)NC(=O)CNC(=O)CNC(=O)[C@H]5CCCN5C(=O)[C@H](CCCNC(=N)N)NC(=O)[C@H](CSSC[C@H](NC(=O)[C@H](CCCCN)NC(=O)[C@H](CCCCN)NC(=O)[C@H](CC(C)C)NC1=O)C(=O)N[C@@H](CCCNC(=N)N)C(=O)N[C@@H](CCCNC(=N)N)C(=O)N[C@@H](CC(=O)O)C(=O)N[C@@H](CO)C(=O)N[C@@H](CC(=O)O)C(=O)N4)NC(=O)[C@H]([C@@H](C)CC)NC3=O)C(=O)NCC(=O)N[C@@H](CO)C(=O)NCC(=O)N[C@@H](CO)C(=O)N[C@@H](CC(=O)O)C(=O)NCC(=O)NCC(=O)N[C@@H](C(C)C)C(=O)N2` is recorded as 75% (RP-HPLC; NH4HCO3 without redox agents; 72 h, pH 8.5, room temperature, oxidative folding).
`C[C@H]1CNCCCN1S(=O)(=O)c1cccc2cncc(F)c12`: “subjects with soft faeces” 5.6% (healthy adult men; ocular, 1 drop per eye twice daily, 8 days, adverse event).
